Assay results of several laboratories.
Each line is one published result; not all experiments were run side by side. ± gives the spread as reported.

Structure (SMILES)	host	sample	route	dose	time	notes	terminal half-life
Cc1cc(-c2nccc3c2ccn3CC(=O)Nc2ccc(-c3cnccn3)cn2)ccn1	human	plasma	oral	7 mg single dose	–	geometric mean	10.8 h
C[C@@H](c1ccc2nccn2c1)n1nnc2ncc(-c3cnn(C)c3)nc21	human	plasma	oral	300 mg	cycle 1 day 1, single dose	–	3.14 h
C[C@@]1(c2cc(NC(=O)c3ccc(C#N)cn3)ccc2F)C=CSC(N)=N1	elderly humans, both sexes	plasma	oral	3 mg single dose	–	mean	13.9 h
COc1nnc2ccc(N3CCC(c4ccc(OCCN5CCN(C)C(=O)[C@H]5C)cc4)CC3)nn12	human	plasma	oral	5 mg once daily	–	single dose, monotherapy	3.38 h
C#C[C@]1(O)CC[C@H]2[C@@H]3CCc4cc(O)ccc4[C@H]3CC[C@@]21C	human female	–	oral	single dose oral contraceptive	–	cpd alone	18.4 ± 6 h
Cc1cc(-c2nnc(N)nc2-c2ccc(F)cc2)cc(Cl)n1	human patients	plasma	oral	75 mg capsule once daily, multiple doses	–	arithmetic mean	9.28 h
CN(CC#N)C(=O)C[C@H](Nc1nc2ccccc2[nH]1)c1cccc(C(F)(F)F)c1	human	–	intravenous infusion	3 mg/kg	–	1 mg/mL formulation	6.12 ± 0.37 h
CN1C(=O)[C@@H](NC(=O)c2nnc(Cc3ccccc3)[nH]2)COc2cccnc21	healthy human, fasted	plasma	oral	400 mg single dose	–	geometric mean	9.01 h

A few entries again:
Structure (SMILES)	host	sample	route	dose	time	notes	terminal half-life
C[C@@H](c1ccc2nccn2c1)n1nnc2ncc(-c3cnn(C)c3)nc21	human	plasma	oral	300 mg	cycle 1 day 1, single dose	–	3.14 h
